Results gathered from unrelated publications.
Lines come from different studies, so protocols differ. “And” joins repeats or separate records; there may be more than shown. Numbers after ± are the reported error.

Structure (SMILES)	cell line	test	test system	setting	how to read	measurement	result
Nc1cccc2c1C(=O)N(C1CCC(=O)NC1=O)C2=O (stereo not drawn)	bone marrow CD138+ myeloma cells	XTT		0.8 µM, phenol red-free RPMI		viability	104%
Cn1cncc1[C@@](N)(c1ccc(Cl)cc1)c1ccc2c(c1)c(-c1cccc(Cl)c1)cc(=O)n2C	HEK293T ATF4-FLuc reporter	ATF4 reporter gene, activator, luciferase reporter				EC50	7.38 µM
Cn1cc(-c2ccc(-c3cncc(Cl)c3N3CCC4(CCNC4=O)CC3)cc2)cn1	COLO 205	gene expression, microarray, measured: PRDM8 mRNA		concentration not given, 6 h	reference: untreated cells	log2 fold change	4.13
Cc1cnc2ccc3c(c2n1)N1CCC(O)N=C1N3C (stereo not drawn)	BALB/c 3T3	colony formation		0.5 µM		plating efficiency	51%
NC(=O)[C@@H]1CC[C@@H]2CN1C(=O)N2OS(=O)(=O)O	THP-1	pyroptotic LDH release		2 µM, 40 min, added: LPS then nigericin		inhibition	3.23%
CCn1cc(-c2cc(Cn3ccoc3=N)cc3c2CCN([C@@H](C)c2cc(OC)ccn2)C3=O)c(C(F)(F)F)n1	Calu-1	cell growth, inhibitor		120 h		EC50	0.451 µM
CC/C(=N\NC(=O)C(C)Nc1ccccc1)c1ccc(O)c(C)c1O (stereo not drawn)	SK-OV-3	Western blot		10 µM, 3 h, 2D culture, unit not given	reference: DMSO	LATS band intensity	1.68 ± 1.96
COc1cnc2cccc(N3CCc4c(cc(Cn5ccnc5C)cc4-c4cn(C)nc4C(F)(F)F)C3=O)c2c1	NOMO-1	cell growth, inhibitor		120 h		EC50	0.604 µM
CC(C)NCC(O)c1ccc(O)c(O)c1 (stereo not drawn)	mouse ventricular cardiomyocytes			dose not given, 0.035 s		sarcomere length	1.8 µm
O=c1[nH]nc(OCCCc2ccc(Cl)cc2)c(NCc2cccnc2)c1Br	HEK-293T	RNA-seq GSEA, measured: Hallmark cholesterol homeostasis		concentration not given	direction not given	normalized enrichment score	1.04
C=CCCCCCCCCCO	THP-1	pyroptotic LDH release		2 µM, 40 min, added: LPS then nigericin		inhibition	2.21%
COc1ccc(NC(=S)N/N=C/c2cccc3cc4ccccc4nc23)cc1	HeLa	PI flow cytometry		IC50, 48 h		cells in G1 phase	43.9%
O=C(O)c1cc(O)c(O)c(O)c1	Caco-2/THP-1 co-culture			0.5 µg/mL, added: LPS 500 ng/mL		kynurenine level	129 ± 13.5 % change
Cc1c(C)c2c(c(C)c1O)CCC(C)(COc1ccc(CC3SC(=O)NC3=O)cc1)O2 (stereo not drawn)	HepG2	measured: MTT reduction		24 h, representative mode		point of departure	0.339 µM
CCc1cnc(N2CCC(c3nc(COc4ccc(-n5cnnn5)cc4)cs3)CC2)nc1	HEK293T	RNA-seq, measured: MTHFR mRNA		10 µM, 6 h	reference: vehicle	log2 fold change	0.266
O=C(O)Cc1ccc(O)cc1	Caco-2/THP-1 co-culture			0.05 µg/mL, added: LPS 50 ng/mL		kynurenine level	134 ± 12.2 % change
CCCC1O[C@@H]2C[C@H]3[C@@H]4CCC5=CC(=O)C=C[C@@]5(C)[C@H]4[C@@H](O)C[C@@]3(C)[C@@]2(C(=O)COC(=O)c2ccc(CO[N+](=O)[O-])cc2)O1 (stereo partly drawn)	HEK293T ATF4-FLuc reporter	ATF4 reporter gene, activator, luciferase reporter				EC50	> 9.96 µM
Cc1ccc(CNC(=O)Cn2cc(CSc3nc4ccccc4[nH]3)nn2)cc1	Caco-2	MTT		31.3 ppm		viability	28.3%
CC(C)CN(C[C@@H](OP(=O)(O)O)[C@H](Cc1ccccc1)NC(=O)O[C@H]1CCOC1)S(=O)(=O)c1ccc(N)cc1	THP-1	pyroptotic LDH release		2 µM, 40 min, added: LPS then nigericin		inhibition	-0.0894%
CC(C)(O)c1coc(S(=O)(=O)NC(=O)Nc2c3c(cc4c2CCC4)CCC3)c1	THP-1 wild type, LPS-primed	inhibitor		25 µM, 2 h, added: nigericin 6.25 µM		LDH release	16% and 20.1% and 15.1%
CC(C)NC(=O)COc1cccc(-c2nc(Nc3ccc4[nH]ncc4c3)c3ccccc3n2)c1	HEK293T ATF4-FLuc reporter	ATF4 reporter gene, activator, luciferase reporter				EC50	1.58 µM

Structure (SMILES)	cell line	test	test system	setting	how to read	measurement	result
COc1cc(/C=C/c2ccc(O)cc2)cc(OC)c1	human iPSC cardiomyocytes	plate-normalised		concentration not given, hit retest	reference: vehicle controls, SDs below control	MyBP-C level change	16.7 SD
CCn1cc(-c2cc(Cn3ccnc3)cc3c2CCN([C@H](c2cc(OC)ccn2)C2CC2)C3=O)c(C(F)(F)F)n1	OCUM1	cell growth, inhibitor		120 h		EC50	1.61 µM
O=c1c(O)c(-c2ccc(O)cc2)oc2cc(O)cc(O)c12	Caco-2/THP-1 co-culture			0.25 µg/mL, added: LPS 250 ng/mL		kynurenine level	78.2 ± 1.3 % change
CN[C@@H](C)C(=O)N[C@H](C(=O)N1CCC[C@H]1c1nc(C(=O)c2ccc(F)cc2)cs1)C1CCCCC1	HEK293T ATF4-FLuc reporter	ATF4 reporter gene, activator, luciferase reporter				EC50	> 9.96 µM
COc1ccc(OC)c(-c2nc3ccc(-c4nc5ccc(N6CCN(C)CC6)cc5[nH]4)cc3[nH]2)c1	RXF 393	SRB		10 µM, 48 h		growth percent	69.8%
O=C(Nc1cccc(C(F)(F)F)c1)c1cc(Br)cc(Br)c1O	HEK293T ATF4-FLuc reporter	ATF4 reporter gene, activator, luciferase reporter				EC50	2.25 µM
CNC(=O)c1c(-c2ccc(F)cc2)oc2cc(N(CCO)S(C)(=O)=O)c(C3CC3)cc12	THP-1	pyroptotic LDH release		2 µM, 40 min, added: LPS then nigericin		inhibition	10.1%
Cc1nn(-c2nc3c(F)cc(F)cc3s2)c(O)c1C(c1ccc(C(F)(F)F)cc1)c1c(C)nn(-c2nc3c(F)cc(F)cc3s2)c1O	THP1-Dual	western blot		20 µM, added: poly(I:C)	reference: DMSO	phospho-TBK1 to TBK1 ratio	0.791 and 1.16 and 1.02
O=C(O)CCc1ccc(O)cc1	Caco-2/THP-1 co-culture			0.05 µg/mL, added: LPS 50 ng/mL		kynurenine level	102 ± 2.3 % change
O=C(Nc1nnc2n3c(nc(-c4ccc(Cl)cc4)c1-2)SCC3=O)c1ccccc1	RXF 393	SRB		10 µM, NCI60 single-dose screen	reference: untreated	cell growth	99.2%
C=CC1=C(C)c2cc3[n-]c(cc4nc(cc5[n-]c(cc1n2)c(C)c5C=C)C(C)=C4CCC(=O)O)c(CCC(=O)O)c3C.[Zn+2]	SH-SY5Y	RNA-seq, measured: GREM1 mRNA		5 µM, 5 h	reference: untreated cells	fold change	2.26
CN1CC[C@H](c2c(O)cc(O)c3c(=O)cc(-c4ccccc4Cl)oc23)[C@H](O)C1	THP-1	pyroptotic LDH release		2 µM, 40 min, added: LPS then nigericin		inhibition	-5.67%
Cc1cc(N2CCc3c(c(C)nn3CC34CCC(NC(=O)[C@@H]5COCCN5)(CC3)CC4)C2)c2cnn(C)c2n1	human PBMC	qRT-PCR, measured: IFI44 mRNA		100 nM, added: ssRNA		inhibition	93 ± 1%
CSc1cc(Oc2ccnc3[nH]c(=O)cnc23)ccc1NC(=O)Nc1cc(C(C)(C)C)nn1-c1ccccc1	patient-derived cell clone B (sample A)	reverse phase protein array, measured: mTOR phosphosite 2448	human	1 µM, 4 h	reference: DMSO	phospho/total mTOR ratio	0.92
O=C(O)CCc1cccc(O)c1	Caco-2/THP-1 co-culture	TEER		concentration not given, added: LPS 50 ng/mL	reference: control	transepithelial electrical resistance	73.8 ± 6.2%
COc1cnc(-n2cnc(C)n2)c2[nH]cc(C(=O)C(=O)N3CCN(C(=O)c4ccccc4)CC3)c12	THP-1	pyroptotic LDH release		2 µM, 40 min, added: LPS then nigericin		inhibition	-5.67%
O=C(/C=C/C=C/C=C/C1CCCCC1)NC1=C[C@@](O)(/C=C/C=C/C=C/C(=O)NC2=C(O)CCC2=O)[C@@H]2O[C@@H]2C1=O	NCI-H2286	cell growth, CellTiter-Glo		78 h		GI50	9.84 µM
C=C[C@](C)(O)CC[C@@H]1[C@@]2(C)CCCC(C)(C)[C@@H]2CC[C@@]1(C)O	THP-1	pyroptotic LDH release		2 µM, 40 min, added: LPS then nigericin		inhibition	3.38%
Nc1ncc(-c2cccnc2)nc1Nc1ccc2[nH]ccc2c1	HEK293T ATF4-FLuc reporter	ATF4 reporter gene, activator, luciferase reporter				EC50	> 9.96 µM
O=C1C=CC(=O)N1	THP-1	pyroptotic LDH release		2 µM, 40 min, added: LPS then nigericin		inhibition	15.7%
CCOC(=O)c1nn(-c2ccccc2)c(C#N)c1N	human monocytes	phagocytosis of anti-D RBCs		5 µM, lab-synthesized sample		inhibition	37.1 ± 5.5%

Some of these lines once more:
Structure (SMILES)	cell line	test	test system	setting	how to read	measurement	result
CC(C)NC(=O)COc1cccc(-c2nc(Nc3ccc4[nH]ncc4c3)c3ccccc3n2)c1	HEK293T ATF4-FLuc reporter	ATF4 reporter gene, activator, luciferase reporter				EC50	1.58 µM
COc1cc(/C=C/c2ccc(O)cc2)cc(OC)c1	human iPSC cardiomyocytes	plate-normalised		concentration not given, hit retest	reference: vehicle controls, SDs below control	MyBP-C level change	16.7 SD
CCn1cc(-c2cc(Cn3ccnc3)cc3c2CCN([C@H](c2cc(OC)ccn2)C2CC2)C3=O)c(C(F)(F)F)n1	OCUM1	cell growth, inhibitor		120 h		EC50	1.61 µM
O=c1c(O)c(-c2ccc(O)cc2)oc2cc(O)cc(O)c12	Caco-2/THP-1 co-culture			0.25 µg/mL, added: LPS 250 ng/mL		kynurenine level	78.2 ± 1.3 % change
CN[C@@H](C)C(=O)N[C@H](C(=O)N1CCC[C@H]1c1nc(C(=O)c2ccc(F)cc2)cs1)C1CCCCC1	HEK293T ATF4-FLuc reporter	ATF4 reporter gene, activator, luciferase reporter				EC50	> 9.96 µM
COc1ccc(OC)c(-c2nc3ccc(-c4nc5ccc(N6CCN(C)CC6)cc5[nH]4)cc3[nH]2)c1	RXF 393	SRB		10 µM, 48 h		growth percent	69.8%
O=C(Nc1cccc(C(F)(F)F)c1)c1cc(Br)cc(Br)c1O	HEK293T ATF4-FLuc reporter	ATF4 reporter gene, activator, luciferase reporter				EC50	2.25 µM
